Published values pooled from the literature.
Values joined by “and” are separate records of one study, mostly repeats; a detail may differ. Numbers after ± are the reported error.
CNR1: Cannabinoid receptor 1 (CNR1, Homo sapiens, UniProt P21554)
UniProt P21554, sequence (whole entry, unmodified, looked up): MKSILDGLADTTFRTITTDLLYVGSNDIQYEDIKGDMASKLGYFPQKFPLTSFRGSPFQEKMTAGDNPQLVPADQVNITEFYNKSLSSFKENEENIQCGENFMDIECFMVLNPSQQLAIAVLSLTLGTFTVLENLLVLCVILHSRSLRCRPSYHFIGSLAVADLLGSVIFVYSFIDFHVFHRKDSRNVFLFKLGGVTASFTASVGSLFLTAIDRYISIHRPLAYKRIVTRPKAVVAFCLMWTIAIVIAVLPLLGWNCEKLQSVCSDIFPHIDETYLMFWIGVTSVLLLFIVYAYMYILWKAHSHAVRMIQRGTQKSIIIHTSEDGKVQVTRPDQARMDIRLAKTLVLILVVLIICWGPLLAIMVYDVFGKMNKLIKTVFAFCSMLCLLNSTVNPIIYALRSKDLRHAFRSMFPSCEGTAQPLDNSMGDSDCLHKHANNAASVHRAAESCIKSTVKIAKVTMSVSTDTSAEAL
embR: Transcriptional regulatory protein EmbR (embR, Mycobacterium tuberculosis, UniProt P9WGJ9)
UniProt P9WGJ9, sequence (whole entry, looked up): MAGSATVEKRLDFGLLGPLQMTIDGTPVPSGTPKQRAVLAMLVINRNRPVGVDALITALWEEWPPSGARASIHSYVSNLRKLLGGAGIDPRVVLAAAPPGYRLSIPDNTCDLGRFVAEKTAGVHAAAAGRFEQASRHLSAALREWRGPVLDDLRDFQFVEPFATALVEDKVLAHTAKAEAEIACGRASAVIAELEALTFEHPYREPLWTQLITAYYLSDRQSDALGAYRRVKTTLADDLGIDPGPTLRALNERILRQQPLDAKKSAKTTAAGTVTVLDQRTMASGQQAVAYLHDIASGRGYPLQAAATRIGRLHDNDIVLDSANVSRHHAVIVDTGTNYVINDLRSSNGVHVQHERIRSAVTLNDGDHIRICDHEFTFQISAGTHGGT
UniProt O60285, sequence (whole entry, looked up): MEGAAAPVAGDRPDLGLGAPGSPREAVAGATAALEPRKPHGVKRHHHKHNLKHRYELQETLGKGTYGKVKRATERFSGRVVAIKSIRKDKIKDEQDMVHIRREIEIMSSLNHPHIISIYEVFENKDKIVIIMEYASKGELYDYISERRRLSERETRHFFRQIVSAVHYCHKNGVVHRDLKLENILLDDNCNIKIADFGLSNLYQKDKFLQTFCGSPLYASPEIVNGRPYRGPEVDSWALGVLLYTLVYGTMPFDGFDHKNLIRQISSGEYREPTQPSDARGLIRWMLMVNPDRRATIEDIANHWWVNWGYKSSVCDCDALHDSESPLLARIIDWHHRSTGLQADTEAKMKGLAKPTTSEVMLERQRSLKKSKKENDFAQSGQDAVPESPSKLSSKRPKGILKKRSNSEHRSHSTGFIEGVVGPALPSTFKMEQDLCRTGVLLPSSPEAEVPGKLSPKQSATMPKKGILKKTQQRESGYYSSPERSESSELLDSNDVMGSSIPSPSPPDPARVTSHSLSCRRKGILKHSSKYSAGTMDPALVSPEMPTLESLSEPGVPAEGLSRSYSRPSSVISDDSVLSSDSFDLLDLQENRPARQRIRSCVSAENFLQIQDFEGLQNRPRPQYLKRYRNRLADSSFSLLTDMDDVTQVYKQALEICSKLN
UniProt P41586, sequence (whole entry, unmodified, looked up): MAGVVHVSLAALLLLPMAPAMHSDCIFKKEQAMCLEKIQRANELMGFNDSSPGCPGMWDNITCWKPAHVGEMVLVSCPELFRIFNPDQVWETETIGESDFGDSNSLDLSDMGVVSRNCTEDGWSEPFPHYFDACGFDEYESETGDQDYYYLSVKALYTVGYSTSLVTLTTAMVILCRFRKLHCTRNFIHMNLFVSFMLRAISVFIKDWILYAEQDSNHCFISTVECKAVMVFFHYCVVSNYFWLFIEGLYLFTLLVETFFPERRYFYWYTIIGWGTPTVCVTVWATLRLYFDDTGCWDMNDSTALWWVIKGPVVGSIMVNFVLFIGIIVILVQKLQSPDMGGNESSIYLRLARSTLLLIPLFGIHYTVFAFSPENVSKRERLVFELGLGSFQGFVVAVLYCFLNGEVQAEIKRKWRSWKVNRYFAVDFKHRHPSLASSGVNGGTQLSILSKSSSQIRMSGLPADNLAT
UniProt P42336, sequence (whole entry, looked up): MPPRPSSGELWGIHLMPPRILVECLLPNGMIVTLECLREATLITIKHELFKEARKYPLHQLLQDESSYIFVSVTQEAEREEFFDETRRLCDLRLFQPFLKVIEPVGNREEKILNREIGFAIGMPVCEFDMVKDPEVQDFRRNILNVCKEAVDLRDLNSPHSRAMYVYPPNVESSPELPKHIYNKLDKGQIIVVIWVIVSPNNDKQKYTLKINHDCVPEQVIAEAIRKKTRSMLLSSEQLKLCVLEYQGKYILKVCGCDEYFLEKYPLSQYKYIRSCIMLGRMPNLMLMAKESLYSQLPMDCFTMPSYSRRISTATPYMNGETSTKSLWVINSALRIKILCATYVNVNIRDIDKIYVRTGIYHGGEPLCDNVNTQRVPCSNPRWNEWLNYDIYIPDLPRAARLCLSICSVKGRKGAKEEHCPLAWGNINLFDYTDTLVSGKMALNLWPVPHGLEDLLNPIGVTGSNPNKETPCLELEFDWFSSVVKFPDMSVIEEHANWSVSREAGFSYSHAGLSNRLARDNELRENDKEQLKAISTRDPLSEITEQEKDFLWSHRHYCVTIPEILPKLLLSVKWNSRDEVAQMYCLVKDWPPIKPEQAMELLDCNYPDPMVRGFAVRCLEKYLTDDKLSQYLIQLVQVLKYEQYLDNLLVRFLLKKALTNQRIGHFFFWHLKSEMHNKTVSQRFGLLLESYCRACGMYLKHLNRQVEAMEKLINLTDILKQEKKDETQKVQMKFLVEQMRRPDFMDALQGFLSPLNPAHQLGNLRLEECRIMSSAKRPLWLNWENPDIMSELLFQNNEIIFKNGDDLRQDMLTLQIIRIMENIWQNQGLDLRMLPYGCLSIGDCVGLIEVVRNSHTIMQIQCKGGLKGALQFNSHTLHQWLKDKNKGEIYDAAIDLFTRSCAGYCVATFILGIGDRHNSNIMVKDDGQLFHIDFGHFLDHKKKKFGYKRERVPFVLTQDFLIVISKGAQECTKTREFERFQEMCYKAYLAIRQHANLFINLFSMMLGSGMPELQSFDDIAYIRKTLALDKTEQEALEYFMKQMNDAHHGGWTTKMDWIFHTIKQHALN
UniProt Q01959, sequence (whole entry, looked up): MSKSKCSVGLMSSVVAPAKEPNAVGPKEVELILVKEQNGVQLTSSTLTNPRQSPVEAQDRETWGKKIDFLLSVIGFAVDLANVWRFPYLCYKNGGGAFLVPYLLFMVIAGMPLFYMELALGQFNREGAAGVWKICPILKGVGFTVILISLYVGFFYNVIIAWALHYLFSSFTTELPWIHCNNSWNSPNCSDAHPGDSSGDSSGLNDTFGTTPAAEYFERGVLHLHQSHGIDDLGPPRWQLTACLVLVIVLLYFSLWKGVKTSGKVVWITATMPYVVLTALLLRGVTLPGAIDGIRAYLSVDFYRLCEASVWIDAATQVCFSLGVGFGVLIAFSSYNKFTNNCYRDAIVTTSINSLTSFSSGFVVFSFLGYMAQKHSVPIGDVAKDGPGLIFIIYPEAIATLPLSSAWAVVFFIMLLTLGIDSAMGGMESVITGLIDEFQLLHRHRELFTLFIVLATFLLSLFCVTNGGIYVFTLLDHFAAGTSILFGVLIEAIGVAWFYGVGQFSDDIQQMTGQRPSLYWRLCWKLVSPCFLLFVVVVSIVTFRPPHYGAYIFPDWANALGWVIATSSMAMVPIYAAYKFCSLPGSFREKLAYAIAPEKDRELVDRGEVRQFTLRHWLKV
UniProt O15146, sequence (whole entry, looked up): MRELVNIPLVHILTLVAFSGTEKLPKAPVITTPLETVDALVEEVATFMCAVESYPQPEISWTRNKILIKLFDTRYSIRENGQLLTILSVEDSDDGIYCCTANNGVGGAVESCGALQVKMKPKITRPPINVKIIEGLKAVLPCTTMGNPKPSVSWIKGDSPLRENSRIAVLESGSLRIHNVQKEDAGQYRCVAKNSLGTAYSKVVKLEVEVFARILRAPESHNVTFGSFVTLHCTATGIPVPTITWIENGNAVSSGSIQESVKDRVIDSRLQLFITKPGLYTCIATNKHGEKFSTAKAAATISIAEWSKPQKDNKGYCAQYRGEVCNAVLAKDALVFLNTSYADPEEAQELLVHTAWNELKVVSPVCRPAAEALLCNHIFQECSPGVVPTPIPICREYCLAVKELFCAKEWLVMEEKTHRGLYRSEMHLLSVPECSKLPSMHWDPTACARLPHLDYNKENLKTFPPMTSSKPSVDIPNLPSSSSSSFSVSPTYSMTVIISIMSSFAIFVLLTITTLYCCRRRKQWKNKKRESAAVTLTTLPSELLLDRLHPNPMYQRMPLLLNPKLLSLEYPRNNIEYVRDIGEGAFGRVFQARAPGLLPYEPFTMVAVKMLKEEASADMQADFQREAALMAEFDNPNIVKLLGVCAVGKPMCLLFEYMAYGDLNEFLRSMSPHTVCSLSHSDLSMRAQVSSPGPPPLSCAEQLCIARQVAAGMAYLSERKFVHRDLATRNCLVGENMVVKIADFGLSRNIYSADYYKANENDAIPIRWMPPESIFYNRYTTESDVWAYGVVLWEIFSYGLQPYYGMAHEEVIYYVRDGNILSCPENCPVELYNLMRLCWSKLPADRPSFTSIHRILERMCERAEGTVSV

Compound | tested on | test | system | conditions | scale | endpoint | result
CCCCCn1cc(C(=O)c2cccc3ccccc23)c2ccccc21 | CNR1 | GαoA activation, agonist, BRET |  |  | reference: reference agonist | Emax | 77.3 ± 6.8%
CCOCC1C(c2ccc(Cl)c(Cl)c2)CC2CCC1N2C (stereo not drawn) | SLC6A3 (Homo sapiens, UniProt Q01959) | dopamine uptake |  | 0.002 µM, 0.03333 h, together with: [3H]dopamine | reference: no inhibitor | remaining activity | 3.7%
CN[C@@H]1[C@H](O)[C@H](NC)[C@H]2O[C@]3(O)[C@H](O[C@@H]2[C@H]1O)O[C@H](C)C[C@H]3NC(=O)Cc1cc(Cl)ccn1 | Cacna1b (Rattus norvegicus, UniProt Q02294) | cell-free assay |  | 10 µM |  | inhibition | 2%
Cc1c(-c2ccc(N3CCCCC3)cc2)[nH]c2cc(F)cc(F)c2c1=O | cydA, with subunit CydB (Mycobacterium tuberculosis, UniProt L7N662) | inhibitor |  | 110 nM |  | specific activity | 8.5 ± 0.2 µmol/min/mg
COc1ccccc1C(C[N+](=O)[O-])c1c(-c2ccccc2)[nH]c2ccccc12 (stereo not drawn) | Cannabinoid receptor 1, with Gi1 (CNR1, Homo sapiens, UniProt P21554) | Gi1 dissociation, agonist, BRET |  |  |  | Emax | 74.6 ± 4.61%
CC(C)C[C@H](NC(=O)[C@H](C)NC(=O)[C@H](CCC(=O)O)NC(=O)[C@@H](N)Cc1c[nH]cn1)C(=O)N[C@@H](COP(=O)(O)O)C(=O)N[C@@H](CC(=O)O)C(=O)N1CCC[C@H]1C(=O)N[C@@H](CC(=O)O)C(=O)O | embR | binding |  |  |  | kon | 1080 ± 180 M⁻¹ s⁻¹
CCn1cc(C(=O)NC2CCOCC2OCCO)c(=O)c2ccc(C)nc21 (stereo not drawn) | kasA (Mycobacterium tuberculosis, UniProt P9WQD9) | thermal stabilization, nanoDSF |  | 100 µM |  | ΔTm | -0.57 °C
Nc1ccc(/C=C/C(=O)N2CCc3c(oc4c(-c5ccc(F)cc5)cc(-c5ccc(C(=O)N6CCC(F)(F)CC6)cn5)cc34)C2)cn1 | PIK3CA (Homo sapiens, UniProt P42336) | binding, competition with immobilised ligand |  | 1 µM |  | remaining binding | 100%
CC[C@H](C)[C@H](NC(=O)[C@H](CO)NC(=O)[C@H](CC(N)=O)NC(=O)[C@H](CC(C)C)NC(=O)[C@H](Cc1ccc(O)cc1)NC(=O)[C@H](CCCCN)NC(=O)[C@H](CCCCN)NC(=O)[C@@H](NC(=O)[C@H](C)NC(=O)[C@H](CCSC)NC(=O)[C@H](CCC(N)=O)NC(=O)[C@H](CCCCN)NC(=O)[C@H](CCCNC(=N)N)NC(=O)[C@H](CC(C)C)NC(=O)[C@H](CCCNC(=N)N)NC(=O)[C@@H](NC(=O)[C@H](Cc1ccc(O)cc1)NC(=O)[C@H](CC(N)=O)NC(=O)[C@H](CC(=O)O)NC(=O)[C@@H](NC(=O)[C@H](Cc1ccccc1)NC(=O)[C@@H](NC(=O)[C@H](C)NC(=O)[C@H](CC(=O)O)NC(=O)[C@H](CO)NC(=O)[C@@H](N)Cc1c[nH]cn1)C(C)C)[C@@H](C)O)[C@@H](C)O)C(C)C)C(=O)N[C@@H](CC(C)C)C(=O)N[C@@H](CC(N)=O)C(N)=O | ADCYAP1R1 (Homo sapiens, UniProt P41586, del89-109) | cAMP production, agonist | COS-7 | 37 °C, AUC over 20 min |  | Emax | 74 ± 3%
O=C1NC2(CC2)COc2ncc(F)cc2[C@H]2COCCN2c2ccn3ncc1c3n2 |  |  | Sprague-Dawley rat, female, ovaries | oral, 10 mg/kg/day, 4 weeks, end of treatment |  | organ-to-body weight ratio | 0.036 ± 0.005%
CC(C)C[C@H](NC(=O)[C@@H](N)CO)C(=O)N[C@@H](CCC(=O)O)C(=O)N[C@H](C(=O)N[C@H](C(=O)N[C@@H](CCC(=O)O)C(=O)N[C@@H](C)C(=O)N[C@@H](CC(=O)O)C(=O)O)[C@@H](C)OP(=O)(O)O)C(C)C | embR | biolayer interferometry |  |  |  | koff | 0.00031 ± 5e-06 s⁻¹
CN(C)[C@H]1C[C@@]23CC[C@@]4(O2)C(=CC[C@]2(C)[C@@H](c5ccc6ccncc6c5)CC[C@H]24)C=C3[C@@H](O)[C@@H]1O | STK10 (Homo sapiens, UniProt O94804) | ATP probe labelling, inhibitor, KiNativ profiling |  | 0.1 µM |  | inhibition | 1.7%
CC(C)CC(C(=O)N1CC2(CC1C#N)C(=O)Nc1ccccc12)N(C)C(=O)c1cc2c(F)cc(F)c(F)c2[nH]1 (stereo not drawn) | Replicase polyprotein 1ab, main protease (Human coronavirus OC43, UniProt P0C6X6) | enzyme activity |  | 0.01001 µM |  | remaining activity | 22.9%
Cc1sc2c(c1C)C(c1ccc(Cl)cc1)=NC(CC(=O)OC(C)(C)C)c1nnc(C)n1-2 (stereo not drawn) | Oprk1 (Rattus norvegicus, UniProt P34975) | radioligand binding |  | 1 µM |  | specific binding | 96.8%
O=C1NC(=O)c2c1c1cc(F)c[n+]3c1c1c2c2cc(O)ccc2[n]1[Ru-4]312([N]=C=S)[S+]3CC[S+]1CC[S+]2CC3 (stereo not drawn) | MUSK (Homo sapiens, UniProt O15146) | enzyme activity |  | 100 nM, human enzyme, together with: 10 µM ATP | reference: untreated | remaining activity | 113%
C=C(C)C1C2OC(=O)C1C1(O)CC3OC34C(=O)OC2C14C (stereo not drawn) | Rdl (Drosophila melanogaster, UniProt P25123) | ion current, inhibitor, two-electrode voltage clamp |  | IC50, together with: GABA at EC50 |  | time constant of onset | 6.2 ± 1.3 s
O=[N+]([O-])CC(c1ccco1)c1c(-c2ccccc2)[nH]c2ccccc12 (stereo not drawn) | CNR1 (Homo sapiens, UniProt P21554, I245F) | Gαi1-γ2 dissociation, BRET |  |  |  | Emax | 130 ± 8.77%
CCCCCn1cc(C(=O)c2cccc3c2CC(C)(C)C3)c2ccccc21 | CNR1 | agonist, BRET |  |  | reference: Gαi1 over β-arrestin 2, reference agonist | bias factor (ΔΔlog(Emax/EC50)) | 0.57
CS(C)(=O)=Nc1ccc(-c2ccc(-c3nc4cc(O[C@@H]5CO[C@H]6[C@@H]5OC[C@H]6O)[nH]c4cc3F)cc2)cc1 | NUAK1 (Homo sapiens, UniProt O60285) | enzyme activity, inhibitor |  | 10 µM |  | inhibition | 8%
Cc1ccc(N2C[C@@H]3C[C@H]2CN3C)cc1C(=O)N[C@H](C)c1cc(-c2cnn(C)c2)nc2ccccc12 | African green monkey cells |  |  | 15.62 µM |  | viability | 95.9%
CCCCCn1cc(C(=O)c2ccc3c(c2)CC(C)(C)C3)c2ccccc21 | CNR1 (Homo sapiens, UniProt P21554, F177A) | Gαi1 engagement, agonist, BRET |  |  | reference: reference agonist at wild-type CB1 | Emax | 11.3 ± 11.7%
Cc1ccc(OCCN(C)C)cc1C(=O)N[C@H](C)c1cc(-c2cccs2)nc2ccccc12 | Vero E6 |  |  | 15.62 µM |  | viability | 21% and 22.5%
Cc1ccc2c(C(C[N+](=O)[O-])c3cccs3)c(-c3ccccc3)[nH]c2c1 (stereo not drawn) | CNR1 (Homo sapiens, UniProt P21554, V249A) | β-arrestin recruitment, agonist, luciferase |  |  |  | Emax | 224%
CC(C)(C)C(=O)OCOP(=O)(OCOC(=O)C(C)(C)C)C1CCCN(O)C1=O (stereo not drawn) | HCC 2998 |  |  |  |  | CC50 | 93.9 µM
